Measurements of several laboratories.
Each line is one published result; not all experiments were run side by side. Numbers after ± are the reported error.

For COC(=O)N(C)[C@@H](Cc1ccccc1)C(=O)N[C@@H](Cc1ccccc1)C(=O)N[C@@H](Cc1ccccc1)C(=O)N[C@@H](CCCNC(=N)N)C(=O)N[C@@H](CC(C)C)C(=O)N[C@@H](CCCNC(=N)N)C(=O)N[C@@H](CCCNC(=N)N)C(=O)N[C@H](C)C(=O)N[C@@H](CCCNC(=N)N)C(=O)N1CCC[C@H]1C(=O)N[C@@H](CCCCN)C(N)=O, the Ki was 4.93 nM (Oprk1 (Rattus norvegicus, UniProt P34975); ligand displacement, radioligand).
For CNC(C)C(=O)NC1COC2CCC(C(=O)NCc3ccccc3)N2C1=O (mixture of isomers), the Ki was 8980 nM (Baculoviral IAP repeat-containing protein 2, BIR3 (BIRC2, Homo sapiens, UniProt Q13490); ligand displacement, FP).
With CC[C@H](C)[C@H](NC(=O)[C@@H]1CSCC(=O)NCCC[C@H](NC(=O)[C@H](Cc2ccc(O)cc2)NC(=O)CNC(C)=O)C(=O)N[C@@H](CO)C(=O)N[C@@H](CCCNC(=N)N)C(=O)N[C@@H](CO)C(=O)N[C@@H](Cc2ccc(O)cc2)C(=O)N2CCC[C@H]2C(=O)N2CCC[C@H]2C(=O)N[C@@H](C(C)C)C(=O)N1)C(=O)N1CCC[C@H]1C(=O)N[C@@H](CC(=O)O)C(N)=O the Ki was 60000 nM (Mannan-binding lectin serine protease 2 (Homo sapiens, UniProt O00187); enzyme activity, inhibitor).
With CC[C@H](C)[C@H](NC(=O)CN)C(=O)N[C@H](C(=O)N[C@@H](CC(N)=O)C(=O)N[C@H](C(=O)N[C@@H](CC(C)C)C(=O)N[C@@H](CCC(N)=O)C(=O)N[C@@H](CCC(N)=O)C(=O)N[C@@H](Cc1ccc(O)cc1)C(=O)N[C@@H](Cc1ccc(O)cc1)C(=O)N[C@H]1CSSC[C@@H]2NC(=O)[C@H](CCCCN)NC(=O)[C@H](CCCNC(=N)N)NC(=O)CNC(=O)[C@H](CCCNC(=N)N)NC(=O)[C@H]([C@@H](C)O)NC(=O)[C@H](CO)NC(=O)[C@@H]3CSSC[C@H](NC(=O)[C@H](CCCNC(=N)N)NC(=O)CNC(=O)CNC(=O)[C@H](CCCNC(=N)N)NC(=O)[C@H](C(C)C)NC(=O)[C@H](CCC(N)=O)NC1=O)C(=O)N[C@@H](C)C(=O)N[C@@H](C(C)C)C(=O)N[C@@H](CC(C)C)C(=O)N[C@@H](CO)C(=O)N[C@@H](CSSC[C@@H](C(=O)N[C@@H](CCCNC(=N)N)C(=O)N[C@@H](CCCNC(=N)N)C(=O)N[C@@H](CCCCN)C(=O)N[C@@H](CCCCN)C(N)=O)NC2=O)C(=O)N[C@@H](CC(C)C)C(=O)N1CCC[C@H]1C(=O)N[C@@H](CCCCN)C(=O)N[C@@H](CCC(=O)O)C(=O)N[C@@H](CCC(=O)O)C(=O)N[C@@H](CCC(N)=O)C(=O)N[C@@H]([C@@H](C)CC)C(=O)NCC(=O)N[C@@H](CCCCN)C(=O)N3)[C@@H](C)O)[C@@H](C)CC the Ki was 216 nM (MC1R (Homo sapiens, UniProt Q01726); ligand displacement in cells).
CCCCc1ccc2c(c1)sc(=O)n2CCCCN1CCCCCC1 has a Ki of 1.9 ± 0.2 nM (Sigmar1 (Rattus norvegicus, UniProt Q9R0C9); binding, radioligand binding; rat liver membranes; added: [3H](+)-pentazocine 5 nM).
CNC(=O)C1CCN(c2ccccc2NC(=O)c2ccc(-c3cc(O)ccc3C)c(C)n2)CC1 gave a Ki of 0.7 nM (EPHA5 (Homo sapiens, UniProt P54756); cell-free assay, TR-FRET).
CC(C)C(=O)N[C@H]1c2nc(CCc3ccccc3)cn2[C@H](CO)[C@@H](O)[C@@H]1O gave a Ki of 4.4 nM (Protein O-GlcNAcase (OGA, Homo sapiens, UniProt O60502); enzyme activity, inhibitor).
With Cc1cc2c(cc1Cl)-c1c(c(C(=O)NC(C)C3CCCCC3)nn1-c1ccc(Cl)cc1Cl)C2 (stereo not drawn) the Ki was 2950 ± 550 nM (Cnr1 (Mus musculus, UniProt P47746); binding, radioligand displacement; mouse brain homogenate without cerebellum; added: [3H]CP-55,940).
For CC(=O)N[C@@H](CCCNC(=N)N)C(=O)N[C@@H](Cc1ccc(O)cc1)C(=O)N[C@@H](CCCNC(=N)NC(=O)NCCCCN)C(=O)N[C@@H](CC(C)C)C(=O)N[C@@H](CCCNC(=N)N)C(=O)N[C@@H](Cc1ccc(O)cc1)C(=O)O, the Ki was greater than 5000 nM (NPY5R (Homo sapiens, UniProt Q15761); ligand displacement, radioligand).
